Measurements gathered from unrelated publications.
Values joined by “and” are separate records of one study, mostly repeats; a detail may differ. ± marks the error that the study gave.
PDIA3: Protein disulfide-isomerase A3 (PDIA3, Homo sapiens, UniProt P30101)
Sequence of UniProt P30101 (whole entry, looked up): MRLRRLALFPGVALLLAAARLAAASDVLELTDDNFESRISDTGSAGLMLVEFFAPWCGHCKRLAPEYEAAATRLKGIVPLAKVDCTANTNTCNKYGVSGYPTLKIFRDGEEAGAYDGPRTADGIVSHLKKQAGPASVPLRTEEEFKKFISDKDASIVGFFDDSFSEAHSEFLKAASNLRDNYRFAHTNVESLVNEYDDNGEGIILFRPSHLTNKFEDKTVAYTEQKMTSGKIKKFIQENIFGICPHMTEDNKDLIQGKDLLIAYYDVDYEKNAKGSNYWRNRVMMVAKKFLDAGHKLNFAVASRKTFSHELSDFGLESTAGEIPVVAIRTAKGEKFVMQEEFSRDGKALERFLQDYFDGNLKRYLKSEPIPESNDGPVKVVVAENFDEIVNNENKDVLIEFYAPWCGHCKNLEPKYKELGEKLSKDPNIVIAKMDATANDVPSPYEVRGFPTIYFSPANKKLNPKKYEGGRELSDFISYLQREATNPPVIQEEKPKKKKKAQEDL
KLRK1 with ULBP6: NKG2-D type II integral membrane protein, with ULBP6 (KLRK1, Homo sapiens, UniProt P26718)
Sequence of UniProt P26718 (whole entry, looked up): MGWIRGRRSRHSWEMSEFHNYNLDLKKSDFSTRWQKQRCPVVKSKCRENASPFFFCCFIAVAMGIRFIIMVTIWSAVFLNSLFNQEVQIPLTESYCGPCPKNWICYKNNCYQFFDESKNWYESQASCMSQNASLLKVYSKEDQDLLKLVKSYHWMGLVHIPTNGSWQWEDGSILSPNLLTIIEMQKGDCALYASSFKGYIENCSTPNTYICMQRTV
blaNDM-1: Metallo-beta-lactamase type 2 (blaNDM-1, Klebsiella pneumoniae, UniProt C7C422)
NNMT: Nicotinamide N-methyltransferase (NNMT, Homo sapiens, UniProt P40261)
Sequence of UniProt P40261 (whole entry, looked up): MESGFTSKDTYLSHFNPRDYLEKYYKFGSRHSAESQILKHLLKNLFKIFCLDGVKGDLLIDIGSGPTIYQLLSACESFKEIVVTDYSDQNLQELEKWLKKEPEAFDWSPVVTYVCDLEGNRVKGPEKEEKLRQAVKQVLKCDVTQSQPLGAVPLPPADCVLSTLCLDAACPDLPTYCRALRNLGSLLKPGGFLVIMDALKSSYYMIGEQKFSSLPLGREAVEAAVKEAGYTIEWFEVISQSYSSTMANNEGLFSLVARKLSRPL
Metallo-beta-lactamase type 2: Metallo-beta-lactamase type 2 (Serratia marcescens, UniProt P52699)
Sequence of UniProt P42575 (whole entry, looked up): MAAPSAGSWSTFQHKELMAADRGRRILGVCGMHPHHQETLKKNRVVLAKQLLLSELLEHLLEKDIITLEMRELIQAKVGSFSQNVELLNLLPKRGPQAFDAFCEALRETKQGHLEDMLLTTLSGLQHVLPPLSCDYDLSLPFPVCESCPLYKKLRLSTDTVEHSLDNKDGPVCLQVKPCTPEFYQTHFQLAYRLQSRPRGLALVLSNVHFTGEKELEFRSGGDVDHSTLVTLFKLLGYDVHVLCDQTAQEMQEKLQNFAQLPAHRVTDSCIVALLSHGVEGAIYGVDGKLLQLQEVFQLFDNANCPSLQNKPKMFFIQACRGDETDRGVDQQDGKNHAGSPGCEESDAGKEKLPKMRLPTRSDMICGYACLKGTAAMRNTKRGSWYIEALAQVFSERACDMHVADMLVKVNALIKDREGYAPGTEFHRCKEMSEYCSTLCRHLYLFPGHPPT
Sequence of UniProt Q96SB4 (whole entry, looked up): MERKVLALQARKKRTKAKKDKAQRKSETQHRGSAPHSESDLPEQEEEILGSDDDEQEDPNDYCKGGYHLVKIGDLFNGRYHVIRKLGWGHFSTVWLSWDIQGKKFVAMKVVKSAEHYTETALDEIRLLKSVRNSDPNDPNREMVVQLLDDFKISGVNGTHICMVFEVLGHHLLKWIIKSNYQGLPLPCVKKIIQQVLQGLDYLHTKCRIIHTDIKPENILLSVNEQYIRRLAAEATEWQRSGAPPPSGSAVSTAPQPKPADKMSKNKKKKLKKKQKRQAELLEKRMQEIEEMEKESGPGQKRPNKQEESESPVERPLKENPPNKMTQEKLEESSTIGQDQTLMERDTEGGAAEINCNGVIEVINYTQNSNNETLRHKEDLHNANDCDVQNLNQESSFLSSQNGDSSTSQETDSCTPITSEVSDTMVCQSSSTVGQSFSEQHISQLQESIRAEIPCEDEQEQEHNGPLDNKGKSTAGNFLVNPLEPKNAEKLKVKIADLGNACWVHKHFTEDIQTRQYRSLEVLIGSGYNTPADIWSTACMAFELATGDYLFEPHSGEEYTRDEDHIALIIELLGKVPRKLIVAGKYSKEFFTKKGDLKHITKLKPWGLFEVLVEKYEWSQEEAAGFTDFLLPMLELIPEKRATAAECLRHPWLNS
Sequence of UniProt Q99873 (whole entry, looked up): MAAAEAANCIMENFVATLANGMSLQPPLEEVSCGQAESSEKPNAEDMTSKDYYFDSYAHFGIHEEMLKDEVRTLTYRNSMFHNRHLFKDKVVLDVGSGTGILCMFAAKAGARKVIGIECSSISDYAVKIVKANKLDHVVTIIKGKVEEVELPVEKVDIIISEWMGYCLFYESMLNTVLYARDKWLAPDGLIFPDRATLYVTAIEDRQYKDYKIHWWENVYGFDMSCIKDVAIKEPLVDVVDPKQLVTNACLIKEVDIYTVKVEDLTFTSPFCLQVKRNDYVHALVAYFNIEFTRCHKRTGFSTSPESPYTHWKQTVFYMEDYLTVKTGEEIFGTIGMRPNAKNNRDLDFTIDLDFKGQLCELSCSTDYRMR
Sequence of UniProt Q920B6 (whole entry, unmodified, looked up): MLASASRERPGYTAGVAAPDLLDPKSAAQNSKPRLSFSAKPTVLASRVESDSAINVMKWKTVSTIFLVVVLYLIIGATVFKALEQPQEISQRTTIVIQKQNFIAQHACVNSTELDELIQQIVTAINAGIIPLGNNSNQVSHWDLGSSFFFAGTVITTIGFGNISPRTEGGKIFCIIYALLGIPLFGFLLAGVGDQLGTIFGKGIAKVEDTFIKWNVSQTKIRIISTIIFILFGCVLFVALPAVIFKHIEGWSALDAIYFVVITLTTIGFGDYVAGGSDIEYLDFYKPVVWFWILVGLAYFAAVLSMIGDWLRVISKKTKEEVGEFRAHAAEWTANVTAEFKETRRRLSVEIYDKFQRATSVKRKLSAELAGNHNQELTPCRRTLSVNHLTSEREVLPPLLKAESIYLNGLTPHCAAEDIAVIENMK
Sequence of UniProt P68400 (whole entry, looked up): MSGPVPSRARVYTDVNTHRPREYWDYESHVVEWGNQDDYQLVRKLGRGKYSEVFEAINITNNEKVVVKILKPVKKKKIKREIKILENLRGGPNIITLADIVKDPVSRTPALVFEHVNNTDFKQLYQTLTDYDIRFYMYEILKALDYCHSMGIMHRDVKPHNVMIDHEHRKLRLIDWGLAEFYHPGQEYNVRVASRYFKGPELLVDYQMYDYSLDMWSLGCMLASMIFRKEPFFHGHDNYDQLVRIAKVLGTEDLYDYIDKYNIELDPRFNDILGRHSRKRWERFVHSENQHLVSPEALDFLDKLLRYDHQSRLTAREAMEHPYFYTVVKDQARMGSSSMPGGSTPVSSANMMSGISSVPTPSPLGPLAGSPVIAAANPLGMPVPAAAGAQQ
Sequence of UniProt Q7Z5W3 (whole entry, looked up): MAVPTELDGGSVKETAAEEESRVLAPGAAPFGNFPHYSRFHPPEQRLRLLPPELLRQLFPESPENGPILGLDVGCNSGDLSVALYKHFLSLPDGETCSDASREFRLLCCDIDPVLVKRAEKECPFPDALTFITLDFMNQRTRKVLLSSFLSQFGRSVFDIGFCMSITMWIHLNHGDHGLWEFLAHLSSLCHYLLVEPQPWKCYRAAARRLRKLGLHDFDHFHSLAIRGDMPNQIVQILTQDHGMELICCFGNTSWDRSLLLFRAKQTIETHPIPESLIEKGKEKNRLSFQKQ
Sequence of UniProt P33261 (whole entry, looked up): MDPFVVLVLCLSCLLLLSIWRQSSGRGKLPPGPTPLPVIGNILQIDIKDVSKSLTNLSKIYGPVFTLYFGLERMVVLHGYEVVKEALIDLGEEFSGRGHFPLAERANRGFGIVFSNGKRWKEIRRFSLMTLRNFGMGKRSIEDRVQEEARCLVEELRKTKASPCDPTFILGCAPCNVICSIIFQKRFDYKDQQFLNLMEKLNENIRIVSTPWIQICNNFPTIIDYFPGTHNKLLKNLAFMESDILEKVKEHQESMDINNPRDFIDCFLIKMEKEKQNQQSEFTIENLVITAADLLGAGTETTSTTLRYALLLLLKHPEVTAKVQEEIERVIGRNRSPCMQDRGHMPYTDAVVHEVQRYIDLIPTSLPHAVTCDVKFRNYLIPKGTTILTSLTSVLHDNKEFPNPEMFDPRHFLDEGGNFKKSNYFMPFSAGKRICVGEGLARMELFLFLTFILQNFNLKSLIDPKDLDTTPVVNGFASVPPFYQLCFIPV
Sequence of UniProt O75469 (whole entry, looked up): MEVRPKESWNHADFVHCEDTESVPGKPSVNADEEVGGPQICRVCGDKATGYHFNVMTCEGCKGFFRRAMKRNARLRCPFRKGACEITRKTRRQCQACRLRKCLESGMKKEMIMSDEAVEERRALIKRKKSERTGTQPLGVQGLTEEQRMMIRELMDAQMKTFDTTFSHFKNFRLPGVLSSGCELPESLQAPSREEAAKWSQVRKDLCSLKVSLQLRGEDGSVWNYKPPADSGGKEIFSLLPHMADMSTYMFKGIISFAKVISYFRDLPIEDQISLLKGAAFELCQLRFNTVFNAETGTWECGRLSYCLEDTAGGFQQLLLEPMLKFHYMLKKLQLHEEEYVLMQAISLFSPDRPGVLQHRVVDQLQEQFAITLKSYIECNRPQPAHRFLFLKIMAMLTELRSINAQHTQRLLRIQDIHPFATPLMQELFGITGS
Sequence of UniProt P63104 (whole entry, looked up): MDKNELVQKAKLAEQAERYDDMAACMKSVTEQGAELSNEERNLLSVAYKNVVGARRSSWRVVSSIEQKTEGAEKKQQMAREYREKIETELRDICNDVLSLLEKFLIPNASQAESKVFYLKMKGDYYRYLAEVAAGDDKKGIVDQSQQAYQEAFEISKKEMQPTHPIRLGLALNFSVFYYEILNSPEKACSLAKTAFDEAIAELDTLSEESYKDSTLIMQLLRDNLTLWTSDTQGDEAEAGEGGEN

SMILES | target | assay | system | setting | IC50
COC(=O)C=CCCC(NC(=O)c1ccncc1C(=O)O)C(=O)NC(C(=O)N1CC(=O)CC1C(=O)NC(C(=O)NC(C(N)=O)C1CCCCC1)C1CCCCC1)C(C)(C)C (stereo not drawn) | coagulation factor XIII A chain (Oryctolagus cuniculus, UniProt A0A5F9CS22) | isopeptidase activity, inhibitor | – | added: A101 substrate | 0.02 ± 0.001 µM
COC(=O)C1CN1S(=O)(=O)c1ccc(C(F)(F)F)cc1 (stereo not drawn) | PDIA3 | enzyme activity, inhibitor, absorbance | – | pH 7.6 | > 200 µM
CNC(=O)NC(=N)NCCC[C@@H]1NC(=O)[C@@H](C)NC(=O)C[C@@H](C(=O)O)NC(=O)C[C@@H](C(=O)O)NC(=O)[C@H](Cc2ccccc2)NC1=O | Endochitinase B1 (Aspergillus fumigatus, UniProt Q873X9) | enzyme activity, inhibitor, fluorometric | – | 10 min, pH 5.5, 37 °C, added: 20 µM 4-MU-chitobiose | 60 µM
CC(=O)N[C@@H]1[C@@H](O)[C@H](O)[C@@H](CO)O[C@@H]1SP(=O)(O)OP(=O)(O)OC[C@H]1O[C@@H](n2ccc(=O)[nH]c2=O)[C@H](O)[C@@H]1O | UDP-N-acetylglucosamine--peptide N-acetylglucosaminyltransferase 110 kDa subunit (OGT, Homo sapiens, UniProt O15294) | enzyme activity, inhibitor, radiometric | – | – | 93 µM
CN(C)C(=O)[C@@H](NC(=O)c1ccccc1-c1ccc(C(F)(F)F)cc1)c1cccc(C(F)(F)F)c1 | KLRK1 with ULBP6 | – | – | – | 2.7 ± 1.1 µM
N[C@@H](CN[C@@H](CN[C@@H](CC(=O)O)C(=O)O)C(=O)O)C(=O)O | blaNDM-1 | enzyme activity, inhibitor | – | Zn2+-depleted enzyme | 12800 ± 722 µM
CNc1nc(SC)nc2ccccc12 | Cytochrome P450 2C19 (CYP2C19, Homo sapiens, UniProt P33261) | inhibitor | – | – | 22 µM
C=C(NC(=O)C(=C)NC(=O)c1csc(C2=NC3c4csc(n4)C4NC(=O)c5csc(n5)C(C(C)(O)C(C)O)NC(=O)C5CSC(=N5)C(=CC)NC(=O)C(C(C)O)NC(=O)c5csc(n5)C3(CC2)NC(=O)C(C)NC(=O)C(=C)NC(=O)C(C(C)C)NC2C=Cc3c(C(C)O)cc(nc3C2O)C(=O)OC4C)n1)C(N)=O (stereo not drawn) | Proteasome Macropain subunit MB1 (PSMB5, Homo sapiens, UniProt P28074) | chymotrypsin-like activity, inhibitor | purified human 20S proteasome | 37 °C, 15 min preincubation, added: Suc-Leu-Leu-Val-Tyr-AMC | 3.9 ± 0.2 µM
CC[C@H](C)[C@H](NC(=O)[C@H](CO)NC(=O)[C@H](CC(=O)O)NC(=O)[C@@H](N)C(C)C)C(=O)NCC(=O)N[C@@H](CCSC)C(=O)N[C@@H](CC(C)C)C(=O)N1CCC[C@H]1C(=O)N[C@@H](CCCNC(=N)N)C(=O)N[C@@H](Cc1ccccc1)C(=O)N[C@H](C(=O)N1CCC[C@H]1C(=O)O)[C@@H](C)O | HLA-DRA/HLA-DRB3 (Homo sapiens, UniProt P01903+P79483) | binding, competition binding | purified HLA-DR | 48 h, added: radiolabelled probe peptide 0.1-1 nM | > 5 µM
COc1cc(/C=C(\C#N)C(=O)Nc2nnc(C(F)(F)F)s2)ccc1OC(=O)N1CCN(C(=O)CCCC(=O)NCCCC[C@@H]2NC(=O)[C@@H](Cc3ccc(O)cc3)NC(=O)[C@H](CC(=O)O)NC(=O)CNC(=O)[C@H](CCCNC(=N)N)NC2=O)CC1 | SRSF protein kinase 1 (SRPK1, Homo sapiens, UniProt Q96SB4) | enzyme activity, inhibitor, radiometric | – | – | > 100 µM
COC(=O)C1CN1S(=O)(=O)c1ccc(F)cc1F (stereo not drawn) | PDIA3 | enzyme activity, inhibitor, absorbance | – | pH 7.6 | 113 µM
C[C@]1(COC(=O)Cc2ccc(O)c(O)c2)[C@H](C(=O)O)N2C(=O)/C(=C/c3ccccn3)[C@H]2S1(=O)=O | Beta-lactamase (ampC, Pseudomonas aeruginosa, UniProt P24735) | inhibitor | – | added: nitrocefin | 0.0061 ± 0.0019 µM
CCC12C=CCN3CCC4(c5ccc(OC)cc5N(C)C4C(O)(C(=O)OC)C1O)C32 (stereo not drawn) | Nuclear receptor subfamily 1 group I member 2 (NR1I2, Homo sapiens, UniProt O75469) | – | – | – | 41.4 µM
CC[C@H](C)[C@@H]1NC(=O)[C@H](Cc2c[nH]cn2)NC(=O)[C@H](CC(N)=O)NC(=O)CNC(=O)[C@H](Cc2ccccc2)NC(=O)[C@H](CCCNC(=N)N)NC(=O)[C@H](C)NC(=O)[C@H](Cc2ccccc2)NC(=O)[C@H](C(C)C)NC(=O)[C@H](Cc2ccccc2)NC(=O)[C@@H](Cc2ccc(O)cc2)NC(=O)CSC[C@@H](C(=O)NCC(N)=O)NC(=O)[C@H](C)NC(=O)[C@H](CCCCN)NC(=O)[C@H]([C@@H](C)CC)NC(=O)[C@H]([C@@H](C)CC)NC(=O)[C@H](C(C)C)NC1=O | NNMT | enzyme activity, inhibitor, mass spectrometry | – | – | 1.24 µM
CC(C)Cc1cc(C(=O)O)nc2[nH][nH]c(=O)c12 | Metallo-beta-lactamase type 2 | inhibitor | – | 10 min preincubation, added: FC5 fluorogenic substrate | 348 µM
COC(=O)C[C@H](NC(=O)[C@H](C)NC(=O)[C@@H](NC(=O)[C@H](CC(=O)OC)NC(=O)[C@@H](NC(=O)c1ccc2ccccc2n1)C(C)C)C(C)C)C(=O)COc1c(F)cccc1F | Caspase-2 (Homo sapiens, UniProt P42575) | enzyme activity, inhibitor | – | 45 min preincubation, added: Ac-VDVAD-pNA | 0.127 ± 0.025 µM
CC(=O)N[C@@H](CCCNC(=N)N)C(=O)N[C@H](C(=O)N1CCC[C@H]1C(=O)N[C@@H](COP(=O)(O)O)C(=O)N[C@@H](CC(C)C)C(=O)N1CCC[C@H]1C(=O)N[C@H](C(=O)N1CCC[C@H]1C(c1ccccc1)c1ccccc1)C(C)C)[C@@H](C)O | 14-3-3 protein zeta/delta (YWHAZ, Homo sapiens, UniProt P63104) | peptide binding, inhibitor, competitive fluorescence polarization | – | 10 µM protein, added: 100 nM FAM-labelled diphosphorylated Tau peptide | 6.2 µM

SMILES | target | assay | system | setting | IC50
CCCCn1nnc(-c2ccccc2NC(=O)[C@H](C)CS)n1 | blaNDM-1 | enzyme activity, inhibitor, fluorescence | – | with preincubation | 2.04 µM
Nc1ncnc2c1ncn2[C@@H]1O[C@H](CSCCNC(=O)NCCc2ccccc2)[C@@H](O)[C@H]1O | Protein arginine N-methyltransferase 1 (PRMT1, Homo sapiens, UniProt Q99873) | enzyme activity, inhibitor, radiometric | – | – | > 50 µM
CC(C)(O)c1ccccc1CC[C@H](c1cccc(/C=C/c2ccc3ccc(Cl)cc3n2)c1)[S+]([O-])CC1(CC(=O)O)CC1 (stereo partly drawn) | Cytochrome P450 2C8 (CYP2C8, Homo sapiens, UniProt P10632) | inhibitor | human liver microsomes | pH 7.4, added: paclitaxel | 0.05 µM
CC[C@H](C)[C@@H]1NC(=O)[C@H](CC(C)C)NC(=O)[C@H]([C@@H](C)CC)NC(=O)[C@H](CC(C)C)NC(=O)[C@H](CCCNC(=N)N)NC(=O)[C@H](CCCNC(=N)N)NC(=O)CNC(=O)[C@H](CO)NC(=O)[C@H](CC(C)C)NC(=O)[C@H]([C@@H](C)CC)NC(=O)[C@H]([C@@H](C)CC)NC(=O)[C@H]([C@@H](C)CC)NC(=O)[C@H](CC(C)C)NC(=O)[C@H](CCC(N)=O)NC(=O)[C@H](CCCCN)NC(=O)[C@@H](Cc2ccc(O)cc2)NC(=O)CSC[C@@H](C(=O)NCC(N)=O)NC1=O | NNMT | enzyme activity, inhibitor, mass spectrometry | – | – | 0.241 µM
CNC(=O)c1ccc(-c2cnn3ccc(C(=O)Nc4ccc(C#N)cn4)cc23)cc1 | Phosphatidylinositol 4-kinase (Cryptosporidium parvum, UniProt Q5CVD3) | enzyme activity | – | added: ATP 3 µM | > 10 µM
CCCCC[N+](CCCCC)(CCCCC)CCCCC | Potassium channel subfamily K member 2 (Kcnk2, Rattus norvegicus, UniProt Q920B6, L189C/T157C) | ion current, inhibitor, patch clamp | – | – | 8150 µM
Cc1cccc([C@H](NC(=O)c2cnccc2-c2ccc(C(F)(F)F)cc2)C(=O)N(C)C)c1 | KLRK1 with ULBP6 | ligand binding, inhibitor, TR-FRET | HEK293 expressing NKG2D and DAP10 | added: ULBP6-AF647 | 0.9 ± 0.3 µM
Nc1ncnc2c1ncn2[C@@H]1O[C@H](CSCCNC(=O)NCC2CCCCC2)[C@@H](O)[C@H]1O | RNA 5'-monophosphate methyltransferase (BCDIN3D, Homo sapiens, UniProt Q7Z5W3) | enzyme activity, inhibitor, radiometric | – | – | > 50 µM
CCC(=O)Nc1cc(Nc2cc(NC3CC3)n3ncc(C#N)c3n2)ccc1N(C)CCNC | Casein kinase II subunit alpha (CSNK2A1, Homo sapiens, UniProt P68400) | target engagement in cells, BRET | – | – | 0.00631 µM
C[C@H](CS)C(=O)Nc1cccc(-c2nn[nH]n2)c1 | Metallo-beta-lactamase type 2 | inhibitor | – | 10 min preincubation, added: FC5 substrate | 0.71 µM
O=C(Oc1cncc(Cl)c1)c1cccs1 | Genome polyprotein, 3C protease (Human hepatitis A virus genotype IB, UniProt P08617) | enzyme activity, inhibitor | – | – | 0.5 µM and 0.54 µM
CC(C)[C@H](NC(=O)[C@@H]1CCNC(=O)NCCCC[C@@H](NC(=O)[C@@H](N)Cc2ccc(O)cc2)C(=O)NCC(=O)N[C@@H](Cc2ccccc2)C(=O)N1)C(=O)N[C@H](C(=O)NCC(=O)NCCNC(N)=O)C(C)C | Delta-type opioid receptor (Oprd1, Mus musculus, UniProt P32300) | contraction inhibition, agonist | mouse, isolated vas deferens | – | 0.0169 ± 0.0005 µM
CC(=O)N[C@@H](Cc1ccccc1)C(=O)N[C@@H](CC(C)C)C(=O)N[C@H](C(=O)N[C@@H](CC(=O)O)C(=O)CCl)[C@@H](C)O | Caspase-6 (CASP6, Homo sapiens, UniProt P55212) | enzyme activity, inhibitor, fluorescence | – | – | 43.4 µM
CC(C)C[C@H](NC(=O)[C@@H](N)CCCCN)C(=O)NCC(=O)NCC(=O)NCC(=O)N[C@@H](CCC(N)=O)C(=O)N[C@@H](Cc1ccc(O)cc1)C(=O)NCC(=O)N[C@@H](CCC(=O)O)C(=O)O | HLA class I histocompatibility antigen, A alpha chain, allele A*68:01 (Homo sapiens, UniProt P04439) | peptide binding, competitive radioligand binding | – | room temperature, HLA-A*6801 allele, added: radiolabelled probe peptide | 4.21 µM
COc1cc2oc(=O)c3c4cc(OC)c(O)cc4oc3c2cc1O | Genome polyprotein, NS5B polymerase (Hepatitis C virus genotype 1b, UniProt P26663) | NS5B RNA polymerase activity, inhibitor | hepatitis C virus, genotype 1b | added: poly(rA)/U12 | 311 µM
CC[N+](CC)(CC)CC | Potassium channel protein kcv, L70A in three subunits (A250R, Paramecium bursaria Chlorella virus 1, UniProt Q84568, L70A) | – | – | – | 8500 ± 1200 µM
